Results collected from several papers.
Protocols differ between the studies behind these lines. Numbers after ± are the reported error.
Effect on: binding
PTH1R: Parathyroid hormone/parathyroid hormone-related peptide receptor (PTH1R, Homo sapiens, UniProt Q03431)
Sequence of UniProt Q03431 (whole entry, looked up): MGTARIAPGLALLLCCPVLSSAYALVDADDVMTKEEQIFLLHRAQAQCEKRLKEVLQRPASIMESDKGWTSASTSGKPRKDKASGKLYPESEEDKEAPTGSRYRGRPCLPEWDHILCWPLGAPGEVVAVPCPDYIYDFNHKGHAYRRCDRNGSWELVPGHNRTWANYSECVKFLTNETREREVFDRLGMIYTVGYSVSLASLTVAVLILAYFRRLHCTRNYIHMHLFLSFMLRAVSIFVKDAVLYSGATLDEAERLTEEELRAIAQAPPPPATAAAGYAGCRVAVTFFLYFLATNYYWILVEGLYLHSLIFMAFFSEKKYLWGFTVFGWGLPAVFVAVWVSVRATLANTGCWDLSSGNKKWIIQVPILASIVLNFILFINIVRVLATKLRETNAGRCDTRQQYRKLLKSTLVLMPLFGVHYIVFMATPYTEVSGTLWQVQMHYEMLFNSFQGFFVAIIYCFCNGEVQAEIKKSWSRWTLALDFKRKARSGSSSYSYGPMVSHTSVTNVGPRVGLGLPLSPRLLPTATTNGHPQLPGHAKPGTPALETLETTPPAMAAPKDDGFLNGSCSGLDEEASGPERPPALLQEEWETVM
Alpha-mannosidase: Alpha-mannosidase (Canavalia ensiformis, UniProt C0HJB3)
Sequence of UniProt C0HJB3 (whole entry, looked up): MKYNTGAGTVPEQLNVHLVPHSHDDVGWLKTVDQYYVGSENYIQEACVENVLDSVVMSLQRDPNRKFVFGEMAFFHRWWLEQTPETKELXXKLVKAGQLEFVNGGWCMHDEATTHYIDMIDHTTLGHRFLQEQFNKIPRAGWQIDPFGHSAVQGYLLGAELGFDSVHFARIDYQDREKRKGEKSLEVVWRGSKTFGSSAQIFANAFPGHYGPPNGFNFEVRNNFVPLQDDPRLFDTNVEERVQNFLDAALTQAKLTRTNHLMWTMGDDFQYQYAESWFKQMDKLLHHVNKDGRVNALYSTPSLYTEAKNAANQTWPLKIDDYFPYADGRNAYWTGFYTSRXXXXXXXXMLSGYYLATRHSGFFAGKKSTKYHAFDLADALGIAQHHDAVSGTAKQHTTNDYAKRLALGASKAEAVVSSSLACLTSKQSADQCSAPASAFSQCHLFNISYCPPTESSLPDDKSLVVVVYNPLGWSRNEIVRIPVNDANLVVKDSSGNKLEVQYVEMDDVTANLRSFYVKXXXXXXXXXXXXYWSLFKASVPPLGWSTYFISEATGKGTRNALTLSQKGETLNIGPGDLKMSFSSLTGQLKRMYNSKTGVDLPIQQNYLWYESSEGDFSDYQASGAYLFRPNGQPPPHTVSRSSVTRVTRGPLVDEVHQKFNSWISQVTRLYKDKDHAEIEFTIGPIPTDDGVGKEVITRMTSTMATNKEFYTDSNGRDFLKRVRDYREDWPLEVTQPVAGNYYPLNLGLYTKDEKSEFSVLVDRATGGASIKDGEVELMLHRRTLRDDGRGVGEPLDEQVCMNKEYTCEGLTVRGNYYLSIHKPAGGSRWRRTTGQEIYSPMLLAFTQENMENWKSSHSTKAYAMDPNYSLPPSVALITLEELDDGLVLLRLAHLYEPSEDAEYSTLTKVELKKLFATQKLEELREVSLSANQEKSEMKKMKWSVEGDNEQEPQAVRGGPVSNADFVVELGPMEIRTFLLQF
ACTA1: Actin, alpha skeletal muscle (ACTA1, Oryctolagus cuniculus, UniProt P68135)
Sequence of UniProt P51686 (whole entry, looked up): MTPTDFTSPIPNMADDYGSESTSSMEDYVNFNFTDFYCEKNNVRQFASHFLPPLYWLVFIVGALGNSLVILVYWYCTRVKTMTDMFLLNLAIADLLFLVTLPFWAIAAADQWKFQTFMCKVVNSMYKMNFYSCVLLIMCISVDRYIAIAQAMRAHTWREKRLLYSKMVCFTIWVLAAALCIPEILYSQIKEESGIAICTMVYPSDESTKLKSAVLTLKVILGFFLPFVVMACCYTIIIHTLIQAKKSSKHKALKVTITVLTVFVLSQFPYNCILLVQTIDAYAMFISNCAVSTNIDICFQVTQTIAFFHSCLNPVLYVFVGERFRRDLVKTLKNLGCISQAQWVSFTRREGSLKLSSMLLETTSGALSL

CC[C@H](C)[C@H](NC(=O)[C@H](CCC(=O)O)NC(=O)[C@H](CO)NC(=O)[C@@H](NC(=O)[C@@H](N)CO)C(C)C)C(=O)N[C@@H](CCC(N)=O)C(=O)N[C@@H](CC(C)C)C(=O)N[C@@H](CCSC)C(=O)N[C@@H](Cc1c[nH]cn1)C(=O)N[C@@H](CC(N)=O)C(=O)N[C@@H](CC(C)C)C(=O)NCC(=O)N[C@@H](CCCCN)C(=O)N[C@@H](Cc1c[nH]cn1)C(=O)N[C@@H](CC(C)C)C(=O)N[C@@H](CC(N)=O)C(=O)N[C@@H](CO)C(=O)N[C@@H](CCSC)C(=O)N[C@@H](CCC(=O)O)C(=O)N[C@@H](CCCNC(=N)N)C(=O)N[C@H](C(=O)N[C@@H](CCC(=O)O)C(=O)N[C@@H](Cc1c[nH]c2ccccc12)C(=O)N[C@@H](CC(C)C)C(=O)N[C@@H](CCCNC(=N)N)C(=O)N[C@@H](CCCCN)C(=O)N[C@@H](CCCCN)C(=O)N[C@@H](CC(C)C)C(=O)N[C@@H](CCC(N)=O)C(=O)N[C@@H](CC(=O)O)C(=O)N[C@H](C(=O)N[C@@H](Cc1c[nH]cn1)C(=O)N[C@@H](CC(N)=O)C(=O)N[C@@H](Cc1ccccc1)C(=O)N[C@@H](CCCCNC(=O)c1ccc2c(c1)C1(OC2=O)c2ccc(N(C)C)cc2Oc2cc(N(C)C)ccc21)C(N)=O)C(C)C)C(C)C has a koff of 0.0049 ± 0.001 s⁻¹ (PTH1R; NanoBRET; pH 6.5, MES buffer).
CC1=CC(=O)CC(C)(C)C1(O)C=CC(C)O (stereo not drawn) gave a koff of 0.00441 s⁻¹ (Alpha-mannosidase; surface plasmon resonance; 25 °C).
CN(C)c1ccc2c(-c3ccc(C(=O)NCCCn4cc(COc5cc(C(=O)c6cc(Cl)ccc6NS(=O)(=O)c6ccc(C(C)(C)C)cc6)cc[n+]5[O-])nn4)cc3C(=O)[O-])c3ccc(=[N+](C)C)cc-3oc2c1 has a koff of 0.000187 s⁻¹ (C-C chemokine receptor type 9 (CCR9, Homo sapiens, UniProt P51686); BRET; cell membranes).
For CC[C@H](C)[C@H](NC(=O)[C@H](CCC(=O)O)NC(=O)[C@H](CO)NC(=O)[C@@H](NC(=O)[C@@H](N)CO)C(C)C)C(=O)N[C@@H](CCC(N)=O)C(=O)N[C@@H](CC(C)C)C(=O)N[C@@H](CCSC)C(=O)N[C@@H](Cc1c[nH]cn1)C(=O)N[C@@H](CC(N)=O)C(=O)N[C@@H](CC(C)C)C(=O)NCC(=O)N[C@@H](CCCCN)C(=O)N[C@@H](Cc1c[nH]cn1)C(=O)N[C@@H](CC(C)C)C(=O)N[C@@H](CC(N)=O)C(=O)N[C@@H](CO)C(=O)N[C@@H](CCSC)C(=O)N[C@@H](CCC(=O)O)C(=O)N[C@@H](CCCNC(=N)N)C(=O)N[C@H](C(=O)N[C@@H](CCC(=O)O)C(=O)N[C@@H](Cc1c[nH]c2ccccc12)C(=O)N[C@@H](CC(C)C)C(=O)N[C@@H](CCCNC(=N)N)C(=O)N[C@@H](CCCCN)C(=O)N[C@@H](CCCCN)C(=O)N[C@@H](CC(C)C)C(=O)N[C@@H](CCC(N)=O)C(=O)N[C@@H](CC(=O)O)C(=O)N[C@H](C(=O)N[C@@H](Cc1c[nH]cn1)C(=O)N[C@@H](CCCCNC(=O)c1ccc2c(c1)C1(OC2=O)c2ccc(N(C)C)cc2Oc2cc(N(C)C)ccc21)C(=O)N[C@@H](Cc1ccccc1)C(N)=O)C(C)C)C(C)C, the koff was 0.0043 ± 0.002 s⁻¹ (PTH1R; NanoBRET; HEK293).
CC(=O)C=C=C1C(C)(C)C[C@H](O)C[C@@]1(C)O gave a koff of 0.00437 s⁻¹ (Alpha-mannosidase; surface plasmon resonance; 25 °C).
With CC(C)[C@H](NC(=O)[C@H](CCCCN)NC(=O)[C@H](C)NC(=O)[C@H](CC(N)=O)NC(=O)CNC(=O)[C@H](CCCNC(=N)N)NC(=O)[C@@H](NC(=O)[C@H](CCCCN)NC(=O)[C@@H](N)CO)[C@@H](C)O)C(=O)N[C@H](C(=O)NCC(=O)N[C@@H](CCCNC(=N)N)C(=O)N[C@@H](Cc1c[nH]c2ccccc12)C(=O)N[C@@H](CCCCN)C(=O)O)[C@@H](C)O the koff was 0.0415 s⁻¹ (ACTA1; SPR; pH 7).
The koff of COc1cc(C(O)C(CO)c2ccc(O)c(OC)c2)ccc1O (stereo not drawn) is reported as 0.00665 s⁻¹ (Alpha-mannosidase; surface plasmon resonance; 25 °C).
For CSCC[C@H](NC(=O)[C@H](CO)NC(=O)[C@H](CC(N)=O)NC(=O)[C@H](CC(C)C)NC(=O)[C@H](CO)NC(=O)[C@H](CCCCN)NC(=O)CNC(=O)[C@H](CCCCN)NC(=O)[C@H](CC(=O)O)NC(=O)[C@H](Cc1c[nH]cn1)NC(=O)[C@H](CC(C)C)NC(=O)[C@H](CC(C)C)NC(=O)[C@H](CCC(N)=O)NC(=O)[C@H](Cc1c[nH]cn1)NC(=O)[C@H](CCC(=O)O)NC(=O)[C@H](CO)NC(=O)[C@@H](NC(=O)[C@H](C)N)C(C)C)C(=O)N[C@@H](CCC(=O)O)C(=O)N[C@@H](CCCNC(=N)N)C(=O)N[C@H](C(=O)N[C@@H](CCC(=O)O)C(=O)N[C@@H](Cc1c[nH]c2ccccc12)C(=O)N[C@@H](CC(C)C)C(=O)N[C@@H](CCCNC(=N)N)C(=O)N[C@@H](CCCCN)C(=O)N[C@@H](CCCCN)C(=O)N[C@@H](CC(C)C)C(=O)N[C@@H](CCC(N)=O)C(=O)N[C@@H](CC(=O)O)C(=O)N[C@H](C(=O)N[C@@H](Cc1c[nH]cn1)C(=O)N[C@@H](CC(N)=O)C(=O)N[C@@H](Cc1ccccc1)C(=O)N[C@@H](CCCCNC(=O)c1ccc2c(c1)C1(OC2=O)c2ccc(N(C)C)cc2Oc2cc(N(C)C)ccc21)C(N)=O)C(C)C)C(C)C, the koff was 0.043 ± 0.01 s⁻¹ (PTH1R; NanoBRET; HEK293).
With CC(C)[C@H](NC(=O)[C@H](CCCCN)NC(=O)[C@H](C)NC(=O)[C@H](CCCCN)NC(=O)CNC(=O)[C@H](CS)NC(=O)[C@@H](NC(=O)[C@H](CCCCN)NC(=O)[C@@H](N)CO)[C@@H](C)O)C(=O)N[C@H](C(=O)NCC(=O)N[C@@H](CCCNC(=N)N)C(=O)N[C@@H](Cc1c[nH]c2ccccc12)C(=O)N[C@@H](CCCCN)C(=O)O)[C@@H](C)O the koff was 0.0169 s⁻¹ (ACTA1; SPR; pH 7).

Repeated from above:
For CSCC[C@H](NC(=O)[C@H](CO)NC(=O)[C@H](CC(N)=O)NC(=O)[C@H](CC(C)C)NC(=O)[C@H](CO)NC(=O)[C@H](CCCCN)NC(=O)CNC(=O)[C@H](CCCCN)NC(=O)[C@H](CC(=O)O)NC(=O)[C@H](Cc1c[nH]cn1)NC(=O)[C@H](CC(C)C)NC(=O)[C@H](CC(C)C)NC(=O)[C@H](CCC(N)=O)NC(=O)[C@H](Cc1c[nH]cn1)NC(=O)[C@H](CCC(=O)O)NC(=O)[C@H](CO)NC(=O)[C@@H](NC(=O)[C@H](C)N)C(C)C)C(=O)N[C@@H](CCC(=O)O)C(=O)N[C@@H](CCCNC(=N)N)C(=O)N[C@H](C(=O)N[C@@H](CCC(=O)O)C(=O)N[C@@H](Cc1c[nH]c2ccccc12)C(=O)N[C@@H](CC(C)C)C(=O)N[C@@H](CCCNC(=N)N)C(=O)N[C@@H](CCCCN)C(=O)N[C@@H](CCCCN)C(=O)N[C@@H](CC(C)C)C(=O)N[C@@H](CCC(N)=O)C(=O)N[C@@H](CC(=O)O)C(=O)N[C@H](C(=O)N[C@@H](Cc1c[nH]cn1)C(=O)N[C@@H](CC(N)=O)C(=O)N[C@@H](Cc1ccccc1)C(=O)N[C@@H](CCCCNC(=O)c1ccc2c(c1)C1(OC2=O)c2ccc(N(C)C)cc2Oc2cc(N(C)C)ccc21)C(N)=O)C(C)C)C(C)C, the koff was 0.043 ± 0.01 s⁻¹ (PTH1R; NanoBRET; HEK293).
CN(C)c1ccc2c(-c3ccc(C(=O)NCCCn4cc(COc5cc(C(=O)c6cc(Cl)ccc6NS(=O)(=O)c6ccc(C(C)(C)C)cc6)cc[n+]5[O-])nn4)cc3C(=O)[O-])c3ccc(=[N+](C)C)cc-3oc2c1 has a koff of 0.000187 s⁻¹ (C-C chemokine receptor type 9 (CCR9, Homo sapiens, UniProt P51686); BRET; cell membranes).
